{"data": "Measurements collected from several papers", "note": "Protocols differ between the studies behind these lines. Numbers after ± are the reported error."}
{"SMILES": "CNC(=O)c1ccc(-c2cnc3ncc(Cc4ccc5ncccc5c4)n3n2)cc1F", "test system": "human moderate hepatic impairment", "conditions": "oral, 200 mg single dose, adjusted geometric mean", "AUC(0-t)": "5.66 µg·h/mL"}
{"SMILES": "CC(C)C[C@H](NC(=O)[C@H](CCc1ccccc1)NC(=O)CN1CCOCC1)C(=O)N[C@@H](Cc1ccccc1)C(=O)N[C@@H](CC(C)C)C(=O)[C@@]1(C)CO1", "test system": "human patients, plasma", "conditions": "intravenous infusion 10 min, 20 mg/m^2, day 1 of cycle 1, KRd regimen", "AUC(0-t)": "0.326 ± 0.0735 µg·h/mL"}
{"SMILES": "CCCCC1(CCCC)CN(c2ccccc2)c2cc(SC)c(OCC(=O)N[C@@H](C(=O)NCC(=O)O)c3ccccc3)cc2S(=O)(=O)C1", "test system": "human, plasma", "conditions": "oral, 5 mg, before breakfast", "AUC(0-t)": "0.000633 µg·h/mL"}
{"SMILES": "Cl.NCCc1c[nH]c(=S)n1[C@H]1COc2c(F)cc(F)cc2C1", "test system": "human male, fasted, plasma", "conditions": "oral, 200 mg single dose, arithmetic mean", "AUC(0-t)": "1.86 µg·h/mL"}
{"SMILES": "CC(C)[C@H](N)C(=O)NCCCS(=O)(=O)O", "test system": "human, both sexes, plasma", "conditions": "oral, 172 mg capsule", "AUC(0-t)": "5.89 ± 1.19 µg·h/mL"}
{"SMILES": "O=C(NCCN1CCCC1)c1cc(-c2ccc(CN3CCOCC3)cc2)nc2ccc(F)cc12", "test": "LC-MS/MS", "test system": "human, whole blood", "conditions": "oral, 400 mg, single dose, geometric mean", "AUC(0-t)": "9.29 µg·h/mL"}
{"SMILES": "Cc1ccc(NC(=O)c2ccc(CN3CCN(C)CC3)cc2)cc1Nc1nccc(-c2cncc(-c3oncc3C)c2)n1", "test system": "older healthy human adults, plasma", "conditions": "oral, 250 mg single dose, fed, mean", "AUC(0-t)": "213 µg·h/mL"}
{"SMILES": "CC[C@H](C)[C@H](NC(=O)[C@H](Cc1ccc(O)cc1)NC(=O)[C@@H](NC(=O)[C@@H](N)CCCNC(=N)N)C(C)C)C(=O)N[C@@H](Cc1c[nH]cn1)C(=O)N1CCC[C@H]1C(=O)N[C@@H](Cc1ccccc1)C(=O)N[C@@H](Cc1c[nH]cn1)C(=O)N[C@@H](CC(C)C)C(=O)O", "test system": "healthy humans, plasma", "conditions": "oral, 0.70 mg/kg single dose, 0 to 12 h", "AUC(0-t)": "0.0583 ± 0.0131 µg·h/mL"}
{"SMILES": "C[C@@H](Oc1cc(-c2cnn(C3CCNCC3)c2)cnc1N)c1c(Cl)ccc(F)c1Cl", "test system": "healthy human, plasma", "conditions": "oral, 250 mg single fasted, geometric mean", "AUC(0-t)": "2.31 µg·h/mL"}
{"SMILES": "CCCc1nn(C)c2c(=O)[nH]c(-c3cc(S(=O)(=O)N4CCN(C)CC4)ccc3OCC)nc12", "test system": "human, male, plasma", "conditions": "oral, 50 mg, day 1", "AUC(0-t)": "0.526 µg·h/mL"}
{"SMILES": "O=C(O)CNC(=O)c1c(O)c2ccccc2n(OCC2CC2)c1=O", "test": "LC-MS/MS", "test system": "human, blood", "conditions": "oral, 100 mg multiple doses", "AUC(0-t)": "19.2 ± 8.82 µg·h/mL"}
{"SMILES": "CC(C)[C@@H](CS(=O)(=O)C(C)C)N1C(=O)[C@@](C)(CC(=O)O)C[C@H](c2cccc(Cl)c2)[C@H]1c1ccc(Cl)cc1", "test system": "human, plasma", "conditions": "oral, 60 mg, old tablet, fasted, geometric LS mean", "AUC(0-t)": "2.46 µg·h/mL"}
{"SMILES": "CNC(=O)c1cc(Oc2ccc(NC(=O)Nc3ccc(Cl)c(C(F)(F)F)c3)cc2)ccn1", "test system": "human patients, plasma", "conditions": "oral, 400 mg twice daily, day -1, alone, steady state", "AUC(0-t)": "90.7 µM·h"}
{"SMILES": "CN[C@@H]1COc2c(S(=O)(=O)NC(=O)Nc3c4c(cc5c3CCC5)CCC4)cnn2C1", "test system": "human", "conditions": "oral, 600 mg, high-fat meal, mean", "AUC(0-t)": "150 µg·h/mL"}
{"SMILES": "CC(C)NC[C@@H](C(=O)N1CCN(c2ncnc3c2[C@H](C)C[C@H]3O)CC1)c1ccc(Cl)cc1", "test system": "human, Severe hepatic function, plasma", "conditions": "oral, 100 mg single dose, NCI classification, geometric mean", "AUC(0-t)": "0.859 µg·h/mL"}
{"SMILES": "Cc1cc(-c2nnc(N)nc2-c2ccc(F)cc2)cc(Cl)n1", "test system": "human patients, plasma", "conditions": "oral, 75 mg capsule, single dose, arithmetic mean", "AUC(0-t)": "3.33 µg·h/mL"}
{"SMILES": "C=C(C)[C@@H]1CC[C@]2(NCCN3CCS(=O)(=O)CC3)CC[C@]3(C)[C@H](CC[C@@H]4[C@@]5(C)CC=C(C6=CC[C@@](CF)(C(=O)O)CC6)C(C)(C)[C@@H]5CC[C@]43C)[C@@H]12", "test system": "healthy human volunteers", "conditions": "oral, 200 mg, tablet, moderate-fat meal, arithmetic mean", "AUC(0-t)": "36.1 µg·h/mL"}
{"SMILES": "CCCC[C@H](NC(C)=O)C(=O)N[C@H]1CCC(=O)NC[C@@H](C(=O)N[C@@H](Cc2c[nH]c3ccccc23)C(N)=O)NC(=O)[C@H](CCCNC(=N)N)NC(=O)[C@@H](Cc2ccccc2)NC(=O)[C@H](Cc2c[nH]cn2)NC1=O", "test system": "healthy human, both sexes, plasma", "conditions": "subcutaneous, 1.0 mg once daily, day 1, geometric mean", "AUC(0-t)": "0.0474 µg·h/mL"}
{"SMILES": "O=S(=O)(c1cccc2cnccc12)N1CCCNCC1", "test system": "human, plasma", "conditions": "intravenous, 30 mg", "AUC(0-t)": "0.0556 µg·h/mL"}
{"SMILES": "CNCc1ccc(-c2[nH]c3cc(F)cc4c3c2CCNC4=O)cc1", "test system": "human, plasma", "conditions": "oral, 40 mg once daily, 24 h, steady state, median", "AUC(0-t)": "1.05 µg·h/mL"}
{"SMILES": "CN(Cc1cnc2nc(N)nc(N)c2n1)c1ccc(C(=O)N[C@@H](CCC(=O)O)C(=O)O)cc1", "test system": "human, both sexes, plasma", "conditions": "oral, 15 mg, day 1, alone, arithmetic mean", "AUC(0-t)": "1.74 µg·h/mL"}
{"SMILES": "Cc1ccc(C(=O)NC2CC2)cc1-n1ncc(C(=O)c2cccc(C#N)c2)c1N", "test system": "human, plasma", "conditions": "oral, 14 mg, geometric mean, added: azithromycin 500 mg daily for three days", "AUC(0-t)": "6.06 µg·h/mL"}
{"SMILES": "CC(=O)c1c(C)c2cnc(Nc3ccc(N4CCNCC4)cn3)nc2n(C2CCCC2)c1=O", "test system": "human", "conditions": "oral, 50 mg/m^2 single dose, day 1", "AUC(0-t)": "1.33 µg·h/mL"}
{"SMILES": "C=CC[C@@H]1/C=C(\\C)C[C@H](C)C[C@H](OC)[C@H]2O[C@@](O)(C(=O)C(=O)N3CCCC[C@H]3C(=O)O[C@H](/C(C)=C/[C@@H]3CC[C@@H](O)[C@H](OC)C3)[C@H](C)[C@@H](O)CC1=O)[C@H](C)C[C@@H]2OC", "test system": "healthy human, whole blood", "conditions": "oral, 5 mg single dose, arithmetic mean, added: isavuconazole 200 mg daily", "AUC(0-t)": "0.68 µg·h/mL"}
{"SMILES": "CCS(=O)(=O)N1CC(CC#N)(n2cc(-c3ncnc4[nH]ccc34)cn2)C1", "test system": "healthy Chinese human subjects, plasma", "conditions": "oral, 4 mg, single dose, mean", "AUC(0-t)": "0.269 µg·h/mL"}
{"SMILES": "CNC(=O)c1c(C)oc2cc(Oc3ncnc4cc(OC)c(OC)cc34)ccc12", "test system": "human, plasma", "conditions": "oral, 5 mg, fed, high-fat meal", "AUC(0-t)": "5.23 µg·h/mL"}
{"SMILES": "O=c1[nH]c(=O)c(Cc2cccc(C(F)(F)F)c2)c([C@H]2CC[C@H](c3ccccc3)CC2)[nH]1", "test system": "human, fasted, plasma", "conditions": "oral, 1500 mg single dose, geometric mean", "AUC(0-t)": "9.42 µg·h/mL"}
{"SMILES": "C=CC(=O)Nc1cc(Nc2ncc(C(=O)OC(C)C)c(-c3cn(C)c4ccccc34)n2)c(OC)cc1N(C)CCN(C)C", "test system": "human, fasted", "conditions": "oral, 160 mg single dose, geometric mean", "AUC(0-t)": "1.01 µg·h/mL"}
{"SMILES": "Cc1cc(C)c2c(c1)[C@@H](N(Cc1cc(C(F)(F)F)cc(C(F)(F)F)c1)c1nnn(C)n1)CCCN2C[C@H]1CC[C@H](C(=O)O)CC1", "test system": "human, plasma", "conditions": "oral, 600 mg once daily, steady state, geometric mean", "AUC(0-t)": "13.7 µg·h/mL"}
{"SMILES": "COC(=O)[C@H](c1ccccc1Cl)N1CCC(S)/C(=C\\C(=O)O)C1 (stereo partly shown)", "test system": "human patients, CYP3A4 wt/wt, plasma", "conditions": "oral, 75 mg clopidogrel daily, day 7, median", "AUC(0-t)": "0.00569 µg·h/mL"}
{"SMILES": "O=C(NC[C@H](O)CO)c1ccncc1Nc1ccc(I)cc1F", "test system": "human patients, plasma", "conditions": "oral, 60 mg single dose, day 1, median, added: FOLFIRI", "AUC(0-t)": "1.39 µg·h/mL"}
{"SMILES": "COc1c(OCCCN2CCOCC2)ccc2c1N=C(NC(=O)c1cnc(N)nc1)N1CCN=C21", "test system": "human cancer patients, plasma", "conditions": "intravenous, 0.6 mg/kg weekly, cycle 1 day 1, compound alone, geometric mean", "AUC(0-t)": "1.21 µg·h/mL"}
{"SMILES": "Cc1[nH]c(/C=C2\\C(=O)Nc3ccccc32)c(C)c1CCC(=O)O", "test system": "human patients", "conditions": "oral, 400 mg/m^2 three times daily, after meal, dose 82", "AUC(0-t)": "17.3 ± 6.87 µg·h/mL"}
{"SMILES": "CN(C)[C@@H](CCOc1cccc2ccccc12)c1ccccc1", "test system": "healthy male humans, plasma", "conditions": "oral, 60 mg, added: udenafil 200 mg", "AUC(0-t)": "2.34 ± 0.997 µg·h/mL"}
{"SMILES": "CC(C)[C@@H](C)[C@@]1(C)CC[C@]2(C)[C@H]3CC[C@@H]4[C@@]5(COC[C@@]4(C)[C@@H](OC[C@](C)(N)C(C)(C)C)[C@H](n4ncnc4-c4ccncc4)C5)C3=CC[C@@]2(C)[C@@H]1C(=O)O", "test system": "human, both sexes, plasma", "conditions": "oral, 1250 mg day 1, then 750 mg days 2 and 3, 24 h, day 3, geometric mean", "AUC(0-t)": "14.8 µg·h/mL"}
{"SMILES": "COc1cccc(-c2ccc(NC(=O)C3=C(C(=O)O)CCC3)c(F)c2)c1", "test system": "human, male, fasted, plasma", "conditions": "oral, 10 mg, single dose, geometric mean", "AUC(0-t)": "35.7 µg·h/mL"}
{"SMILES": "C=CC(=O)N1CCC([C@@H]2CCNc3c(C(N)=O)c(-c4ccc(Oc5ccccc5)cc4)nn32)CC1", "test system": "human", "conditions": "oral, 160 mg, single dose, mean", "AUC(0-t)": "1.16 µg·h/mL"}
{"SMILES": "COc1cc2ncnc(Nc3ccc(F)c(Cl)c3)c2cc1OCCCN1CCOCC1", "test system": "human, plasma", "conditions": "oral, 250 mg, added: vorinostat 200 mg", "AUC(0-t)": "0.00452 ± 0.000779 µg·h/mL"}
{"SMILES": "CCn1c(=O)c2c(nc(/C=C/c3ccc(OC)c(OC)c3)n2C)n(CC)c1=O", "test system": "healthy human, plasma", "conditions": "oral, 40 mg single dose, arithmetic mean, added: rifampin 600 mg/day steady state", "AUC(0-t)": "2.04 µg·h/mL"}
{"SMILES": "COc1cc2c(cc1OC)[C@H]1CC(=O)[C@H](CC(C)C)CN1CC2 (racemic)", "test system": "human CYP2D6 extensive metabolizers, plasma", "conditions": "oral, 25 mg, fasted, geometric mean", "AUC(0-t)": "0.00015 µg·h/mL"}
{"SMILES": "COc1cc2c(Oc3ccc4[nH]c(C)cc4c3F)ncnc2cc1OCCCN1CCCC1", "test system": "human, patients, plasma", "conditions": "oral, 20 mg/m^2 once daily, day 28", "AUC(0-t)": "0.239 µg·h/mL"}
{"SMILES": "CNc1nc(Nc2ccc(-n3cnc(C)n3)c(OC)c2)nc2c1CC[C@H]2c1ccc(F)cc1", "test system": "human", "conditions": "oral, 50 mg once daily, day 1, multiple ascending dose", "AUC(0-t)": "1.52 µg·h/mL"}
{"SMILES": "O=C(O)CC[C@H]1CC[C@@](c2cc(F)ccc2F)(S(=O)(=O)c2ccc(Cl)cc2)CC1", "test system": "human patients, plasma", "conditions": "oral, 1400 mg/m^2 weekly, median, dose 1 of course 1", "AUC(0-t)": "1980 µg·h/mL"}
